Published values from different studies.
Protocols differ between the studies behind these lines. ± marks the error that the study gave.

SMILES	target or system	test	system	setting	endpoint	value
CC[C@@H]1C[C@]1(NC(=O)[C@@H]1C[C@@]2(CN1C(=O)[C@@H](NC(=O)[C@@H](NC(=O)[C@@H]1CCCCN1C(C)C)C1CCCCC1)C(C)(C)C)C(C)(C)C21CCC1)C(=O)NS(=O)(=O)N1CCCC1	–	measured: Nausea	human	oral, 50 mg, simultaneous dosing on day 2, together with: ritonavir 100 mg	subjects with adverse event	0%
C[C@@H](O)[C@H](NC(=O)[C@H](CCCCN)NC(=O)[C@H](Cc1c[nH]c2ccccc12)NC(=O)CN)C(=O)N[C@@H](CCCNC(=N)N)C(=O)NC(C)(C)C(=O)N[C@@H](CCCNC(=N)N)C(=O)NC(C)(C)C(=O)N[C@H](C(=O)N[C@@H](CO)C(=O)N[C@@H](Cc1c[nH]cn1)C(=O)N[C@@H](Cc1ccc(O)cc1)C(=O)NCC(=O)O)[C@@H](C)O	–	–	C57BL/6 mouse, blood	intravenous, 50 mg/kg, 10 h	lactate dehydrogenase	1000 to 2400 U/L
CN(C)C(CNC(=O)Nc1cc(C(F)(F)F)ccc1N1CCOCC1)c1ccncc1 (centres unmarked)	–	–	mouse, serum	intraperitoneal, 180 mg/kg single dose	serum cholesterol	76 mg/dL
COC(=O)C[C@H](NC(=O)[C@H](C)NC(=O)[C@@H](NC(=O)[C@H](CC(=O)OC)NC(=O)[C@@H](NC(=O)c1ccc2ccccc2n1)C(C)C)C(C)C)C(=O)COc1c(F)cccc1F	–	–	rat pups	1 mg/kg, 3 h	core body temperature	36.4 ± 0.67 °C
O.[C-]#[O+].[C-]#[O+].[C-]#[O+].[Re+].c1ccc(-c2ccccn2)nc1	–	RP-HPLC C18 column, measured: aqua complex	MeCN:water 40:60, 0.1% TFA	isocratic elution	capacity factor	1.5
CC(C)C[C@H](NC(=O)[C@H](Cc1ccc(O)cc1)NC(=O)[C@H](C)NC(=O)[C@H](CC(N)=O)NC(=O)[C@H](CC(C)C)NC(=O)[C@H](C)NC(=O)[C@@H](NC(=O)[C@H](CCCCN)NC(=O)CNC(=O)[C@@H](NC(=O)[C@H](CC(N)=O)NC(=O)[C@H](CCCCN)NC(=O)CNC(=O)[C@@H](NC(=O)[C@H](Cc1c[nH]cn1)NC(=O)[C@H](C)NC(=O)[C@H](C)NC(=O)[C@H](CCCCN)NC(=O)[C@H](CCCCN)NC(=O)[C@H](Cc1ccccc1)NC(=O)[C@H](Cc1c[nH]c2ccccc12)NC(=O)[C@H](CCCCN)NC(=O)[C@H](CCCCN)NC(=O)[C@H](CS)NC(=O)CN)C(C)C)C(C)C)C(C)C)C(N)=O	–	–	zebrafish embryos	1 h, 4, 28, 52 hpf	acute toxic concentration	5 to 25 µg/mL
C[C@@H]1CC[C@H]2[C@@H](C)CO[C@@H]3O[C@@]4(C)CC[C@@H]1[C@]32OO4	–	measured: compound	rat, plasma	800 ng/mL spiked, 30 days, long-term storage at -80 °C	measured concentration	827 ± 35.2 ng/mL
c1ccc(C2(CCNC3CCC4(SCCS4)c4ccccc43)CCOC3(CCCC3)C2)nc1 (centres unmarked)	–	–	ICR mice, male, plasma	subcutaneous, 0.1 mg/kg	clearance	86.6 mL/min/kg
CCCCCCCCCCCCC(=O)O.O=C1CCCC2C3CCCN4CCCC(CN12)C34 (centres unmarked)	–	electrical conductivity	water	308.15 K	standard entropy of aggregation	109 J/(mol·K)
CC(C)(CCCC/C=C/CCCCCC(C)(C)C(=O)O)C(=O)O	–	–	rhesus monkey, male, hyperlipidaemic, plasma	oral, 20 mg/kg, first dose	AUC(0-inf)	5680 ± 1430 µg·h/mL
CC[C@H](C)[C@H](NC(=O)CNC(=O)[C@H](Cc1ccccc1)NC(=O)[C@H](CCCCN)NC(=O)[C@H](CCCCN)NC(=O)[C@H](CCCNC(=N)N)NC(=O)[C@H](CCCNC(=N)N)NC(=O)[C@H](CCCNC(=N)N)NC(=O)[C@H](CCC(N)=O)NC(=O)[C@H](CCCNC(=N)N)NC(=O)[C@H](CCCNC(=N)N)NC(=O)[C@H](CCCCN)NC(=O)[C@H](CCCCN)NC(=O)[C@H](CCCNC(=N)N)NC(=O)CNC(=O)[C@@H](N)Cc1ccc(O)cc1)C(=O)N[C@H](C(=O)N[C@@H](CC(N)=O)C(=O)N[C@@H](CO)C(=O)N[C@@H](CCC(N)=O)C(=O)N[C@@H](CC(C)C)C(=O)N[C@@H](CCCCN)C(=O)N1CCC[C@H]1C(=O)O)[C@@H](C)O	–	derivative UV-vis spectrophotometry	DMPC:Chol:SM large unilamellar vesicles vs PBS	30 min, pH 7.4, 37 °C, lipid ratio 75:15:10	partition coefficient Kp	4970 ± 1440
CN[C@](C)(C[18F])C(=O)O	A549 tumour model	–	host not given, muscle	30 min, tumour-bearing	tracer uptake	1.8 %ID/g
COc1cc2c3c(c4cc(OC)c(OC)cc4c2cc1OC)C[N+]1([O-])CCCC1C3 (centres unmarked)	–	–	swine cells	24 (unit not given)	CC50	> 50 µM
CCCCCCCC(=O)NCCCC[C@H](NC(=O)[C@H](Cc1ccccc1)NC(=O)[C@@H](CCCNC(=N)N)NC(=O)[C@@H](N)Cc1ccc(O)cc1)C(N)=O	–	–	male CD-1 mouse, plasma	intravenous, 3 mg/kg	Vd	0.0452 L
CC[C@H](C)[C@H](NC(=O)CNC(=O)[C@H](C)NC(=O)[C@@H](NC(=O)CNC(=O)[C@H](CCCNC(=N)N)NC(=O)[C@@H](NC(=O)[C@H](CCCNC(=N)N)NC(=O)[C@H](CCC(=O)O)NC(=O)CNC(=O)[C@H](CCCNC(=N)N)NC(=O)[C@H](CCCCN)NC(=O)[C@H](C)NC(=O)[C@H](Cc1c[nH]cn1)NC(=O)CNC(=O)[C@H](CCCCN)NC(=O)[C@H](CCCNC(=N)N)NC(=O)[C@H](C)NC(=O)[C@H](Cc1ccc(O)cc1)NC(=O)[C@H](C)NC(=O)[C@H](CC(C)C)NC(=O)[C@H](CC(C)C)NC(=O)CN)C(C)C)[C@@H](C)O)C(=O)N[C@@H](CCCNC(=N)N)C(=O)N[C@@H](Cc1ccccc1)C(=O)N[C@@H](CC(C)C)C(=O)N[C@@H](Cc1ccc(O)cc1)C(=O)N[C@@H](C)C(=O)N[C@@H](C)C(=O)N1CCC[C@H]1C(=O)N[C@@H](CCCNC(=N)N)C(=O)N[C@@H](CCCNC(=N)N)C(=O)O	–	–	100% human serum	27 µM, 37 °C, heat-inactivated serum	onset of degradation	2 min
CCCCCCCC(=O)N[C@@H](CCCCNS(=O)(=O)c1cccc2c(N(C)C)cccc12)C(=O)N[C@H](C(=O)N[C@@H](CCN)C(=O)N[C@H]1CCNC(=O)[C@H]([C@@H](C)O)NC(=O)[C@H](CCN)NC(=O)[C@H](CCN)NC(=O)[C@H](CC(C)C)NC(=O)[C@@H](Cc2ccccc2)NC(=O)[C@H](CCN)NC1=O)[C@@H](C)O	–	fluorescence	whole bacterial cells	pH 7.0	emission maximum	~500 nm
CSCC[C@H](NC(=O)CNC(=O)[C@H](CC(=O)O)NC(=O)[C@@H](NC(=O)[C@@H](NC(=O)[C@@H](NC(=O)CNC(=O)[C@H](CCC(=O)O)NC(=O)[C@H](CCSC)NC(=O)[C@H](CC(=O)O)NC(=O)[C@H](C)NC(=O)[C@H](C)NC(=O)[C@@H](NC(=O)[C@H](CO)NC(=O)[C@@H](N)CC(C)C)[C@@H](C)O)C(C)C)C(C)C)[C@@H](C)O)C(=O)N[C@@H](C)C(=O)N[C@@H](CO)C(=O)NCC(=O)N[C@@H](CC(C)C)C(=O)N[C@@H](CC(=O)O)C(=O)N[C@@H](CCCCN)C(=O)N[C@@H](CC(=O)O)C(=O)N[C@@H](Cc1ccc(O)cc1)C(=O)N[C@@H](CC(C)C)C(=O)N[C@@H](CCCCN)C(=O)N1CCC[C@H]1C(=O)N[C@@H](CC(=O)O)C(=O)N[C@@H](CC(=O)O)C(=O)O	–	–	mice	intravenous, dose not given	Vss	4.1 L/kg
CC[C@H](C)C(=O)N1CCC(NC(=O)Nc2ccc(OC(F)(F)F)c(F)c2)CC1	–	–	human, fed, plasma	oral, 8 mg, single dose tablet, geometric mean	AUC(0-48h)	1.93 µg·h/mL
COC(=O)C[C@](O)(CCCC(C)(C)OC(C)=O)C(=O)O[C@@H]1C(OC)=C[C@]23CCCN2CCc2cc4c(cc2[C@H]13)OCO4	–	–	CD1 mouse, lung	subcutaneous, 1 mg/kg, 2 h	tissue concentration	90.9 ng/mL
COc1cc(NC(=O)C(=O)c2c(C)n(Cc3ccc(Cl)cc3)c3ccc(C)cc23)ccn1	–	–	cynomolgus monkey, male and female, plasma	oral, 10 mg/kg, range of sex means	terminal half-life	17 to 20 h
